Measurements from different studies.
Each numbered part is a random draw from the data of one study; scales do not carry over between parts. Positions count from the first letter of the parent shown.
UniProt Q00535, sequence (whole entry, looked up): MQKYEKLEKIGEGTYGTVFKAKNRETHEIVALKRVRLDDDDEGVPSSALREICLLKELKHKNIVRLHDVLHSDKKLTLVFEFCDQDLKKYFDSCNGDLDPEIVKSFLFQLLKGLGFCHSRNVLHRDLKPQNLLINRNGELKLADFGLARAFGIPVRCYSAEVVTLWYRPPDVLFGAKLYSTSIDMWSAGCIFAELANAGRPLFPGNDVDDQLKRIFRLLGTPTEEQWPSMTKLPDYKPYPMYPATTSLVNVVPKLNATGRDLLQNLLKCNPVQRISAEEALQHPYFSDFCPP
UniProt P11802, sequence (whole entry, looked up): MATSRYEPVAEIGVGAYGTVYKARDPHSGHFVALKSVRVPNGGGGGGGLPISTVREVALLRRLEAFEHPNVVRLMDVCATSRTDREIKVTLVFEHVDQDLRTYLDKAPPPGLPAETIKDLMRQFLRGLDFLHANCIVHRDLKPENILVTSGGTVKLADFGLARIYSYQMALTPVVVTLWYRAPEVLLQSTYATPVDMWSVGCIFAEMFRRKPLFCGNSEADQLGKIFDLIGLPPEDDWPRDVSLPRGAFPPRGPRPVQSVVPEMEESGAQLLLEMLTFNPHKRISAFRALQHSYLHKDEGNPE
UniProt Q13153, sequence (whole entry, looked up): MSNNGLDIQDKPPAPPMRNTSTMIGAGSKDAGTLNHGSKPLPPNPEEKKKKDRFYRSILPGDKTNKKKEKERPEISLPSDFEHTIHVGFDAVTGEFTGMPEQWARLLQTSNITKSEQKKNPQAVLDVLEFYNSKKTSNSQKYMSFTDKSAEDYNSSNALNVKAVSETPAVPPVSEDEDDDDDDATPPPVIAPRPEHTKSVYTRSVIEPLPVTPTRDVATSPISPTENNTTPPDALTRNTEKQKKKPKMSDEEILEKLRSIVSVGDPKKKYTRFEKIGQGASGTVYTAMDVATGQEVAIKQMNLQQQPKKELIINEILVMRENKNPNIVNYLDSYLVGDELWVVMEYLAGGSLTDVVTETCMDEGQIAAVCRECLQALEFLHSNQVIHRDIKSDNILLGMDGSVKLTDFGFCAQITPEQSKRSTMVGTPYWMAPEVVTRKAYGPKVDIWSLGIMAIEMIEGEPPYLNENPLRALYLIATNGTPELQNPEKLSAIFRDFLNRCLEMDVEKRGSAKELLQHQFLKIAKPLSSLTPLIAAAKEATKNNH
UniProt O95819, sequence (whole entry, looked up): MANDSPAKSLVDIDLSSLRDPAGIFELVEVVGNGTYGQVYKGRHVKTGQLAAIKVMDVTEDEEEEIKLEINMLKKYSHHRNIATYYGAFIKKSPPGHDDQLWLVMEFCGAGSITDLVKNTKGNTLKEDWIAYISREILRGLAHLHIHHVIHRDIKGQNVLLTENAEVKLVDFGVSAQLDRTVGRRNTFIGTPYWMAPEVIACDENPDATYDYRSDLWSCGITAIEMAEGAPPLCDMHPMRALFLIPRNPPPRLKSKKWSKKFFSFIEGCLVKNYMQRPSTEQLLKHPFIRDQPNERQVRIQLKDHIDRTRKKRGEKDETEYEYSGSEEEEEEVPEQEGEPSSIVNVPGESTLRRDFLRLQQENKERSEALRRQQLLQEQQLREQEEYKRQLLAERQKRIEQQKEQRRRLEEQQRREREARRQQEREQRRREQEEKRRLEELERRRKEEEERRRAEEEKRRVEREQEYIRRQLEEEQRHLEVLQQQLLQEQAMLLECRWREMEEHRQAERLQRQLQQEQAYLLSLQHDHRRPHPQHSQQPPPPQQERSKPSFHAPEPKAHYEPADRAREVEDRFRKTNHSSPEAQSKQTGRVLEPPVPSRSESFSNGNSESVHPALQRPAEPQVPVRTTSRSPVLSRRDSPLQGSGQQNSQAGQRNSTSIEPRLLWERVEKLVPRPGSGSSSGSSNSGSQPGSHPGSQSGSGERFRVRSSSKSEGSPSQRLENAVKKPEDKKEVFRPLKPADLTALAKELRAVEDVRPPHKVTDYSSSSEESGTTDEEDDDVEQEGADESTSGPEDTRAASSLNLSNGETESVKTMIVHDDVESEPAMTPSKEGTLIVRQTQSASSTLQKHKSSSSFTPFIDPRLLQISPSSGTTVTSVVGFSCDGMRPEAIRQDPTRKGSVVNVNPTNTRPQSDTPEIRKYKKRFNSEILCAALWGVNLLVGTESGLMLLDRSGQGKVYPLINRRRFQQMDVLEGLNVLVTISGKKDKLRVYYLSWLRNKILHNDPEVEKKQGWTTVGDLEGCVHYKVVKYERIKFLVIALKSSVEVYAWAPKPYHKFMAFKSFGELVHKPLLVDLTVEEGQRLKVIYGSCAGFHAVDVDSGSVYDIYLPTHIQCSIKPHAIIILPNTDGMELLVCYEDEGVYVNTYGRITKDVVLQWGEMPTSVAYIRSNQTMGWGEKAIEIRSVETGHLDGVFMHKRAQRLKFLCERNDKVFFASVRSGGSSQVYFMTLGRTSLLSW
UniProt P16591, sequence (whole entry, looked up): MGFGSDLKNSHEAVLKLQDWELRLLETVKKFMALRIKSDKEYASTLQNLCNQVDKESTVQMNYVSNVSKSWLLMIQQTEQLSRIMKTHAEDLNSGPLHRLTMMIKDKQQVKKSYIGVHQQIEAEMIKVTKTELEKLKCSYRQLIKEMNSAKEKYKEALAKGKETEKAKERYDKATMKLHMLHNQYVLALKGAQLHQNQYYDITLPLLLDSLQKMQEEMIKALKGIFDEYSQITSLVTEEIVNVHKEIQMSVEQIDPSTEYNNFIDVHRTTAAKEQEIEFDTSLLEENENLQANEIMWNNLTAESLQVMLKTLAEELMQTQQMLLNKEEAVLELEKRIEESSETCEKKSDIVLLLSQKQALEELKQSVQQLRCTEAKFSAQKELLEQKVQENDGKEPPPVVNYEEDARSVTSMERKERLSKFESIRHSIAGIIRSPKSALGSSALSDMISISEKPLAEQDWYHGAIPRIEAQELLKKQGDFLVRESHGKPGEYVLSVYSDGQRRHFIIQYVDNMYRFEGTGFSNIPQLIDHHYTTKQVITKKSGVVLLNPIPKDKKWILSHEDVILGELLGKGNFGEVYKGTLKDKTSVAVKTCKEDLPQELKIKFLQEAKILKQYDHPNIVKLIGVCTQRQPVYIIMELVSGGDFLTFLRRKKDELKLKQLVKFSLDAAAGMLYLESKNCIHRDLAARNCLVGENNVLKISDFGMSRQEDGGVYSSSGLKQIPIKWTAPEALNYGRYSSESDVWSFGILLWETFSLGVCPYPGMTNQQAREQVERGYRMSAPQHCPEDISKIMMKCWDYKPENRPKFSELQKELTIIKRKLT
UniProt Q12852, sequence (whole entry, looked up): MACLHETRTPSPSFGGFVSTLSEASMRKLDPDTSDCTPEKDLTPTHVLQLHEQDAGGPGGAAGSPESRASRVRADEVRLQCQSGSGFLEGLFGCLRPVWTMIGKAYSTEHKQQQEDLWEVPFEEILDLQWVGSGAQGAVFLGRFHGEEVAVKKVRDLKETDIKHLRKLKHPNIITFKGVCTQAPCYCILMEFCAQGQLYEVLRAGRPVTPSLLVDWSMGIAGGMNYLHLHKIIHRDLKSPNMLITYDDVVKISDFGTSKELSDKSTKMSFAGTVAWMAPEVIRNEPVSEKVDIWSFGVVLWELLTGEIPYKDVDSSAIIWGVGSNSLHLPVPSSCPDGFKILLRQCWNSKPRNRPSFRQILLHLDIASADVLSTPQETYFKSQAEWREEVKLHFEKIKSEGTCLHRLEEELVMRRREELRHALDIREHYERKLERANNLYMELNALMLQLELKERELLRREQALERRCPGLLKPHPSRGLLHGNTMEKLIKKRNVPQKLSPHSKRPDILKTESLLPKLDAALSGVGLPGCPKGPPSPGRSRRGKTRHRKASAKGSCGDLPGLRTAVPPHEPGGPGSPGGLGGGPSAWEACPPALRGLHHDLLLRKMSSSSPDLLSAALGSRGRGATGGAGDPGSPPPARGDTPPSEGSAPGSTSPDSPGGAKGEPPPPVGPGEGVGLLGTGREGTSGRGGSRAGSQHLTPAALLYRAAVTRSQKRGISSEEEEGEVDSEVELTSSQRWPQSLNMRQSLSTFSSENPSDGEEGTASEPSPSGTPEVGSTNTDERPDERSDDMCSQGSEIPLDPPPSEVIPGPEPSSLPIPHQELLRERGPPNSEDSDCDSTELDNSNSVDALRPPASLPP
UniProt P53778, sequence (whole entry, looked up): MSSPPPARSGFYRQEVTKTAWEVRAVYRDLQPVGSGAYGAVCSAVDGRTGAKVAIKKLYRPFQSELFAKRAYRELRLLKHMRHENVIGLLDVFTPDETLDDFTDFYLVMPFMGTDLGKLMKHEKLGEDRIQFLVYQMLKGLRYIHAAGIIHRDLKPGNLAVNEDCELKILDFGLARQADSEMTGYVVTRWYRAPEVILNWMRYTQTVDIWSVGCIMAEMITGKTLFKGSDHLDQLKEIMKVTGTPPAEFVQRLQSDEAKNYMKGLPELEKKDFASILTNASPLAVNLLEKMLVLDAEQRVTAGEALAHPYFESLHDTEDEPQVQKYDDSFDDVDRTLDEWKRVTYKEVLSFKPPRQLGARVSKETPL
UniProt P46734, sequence (whole entry, looked up): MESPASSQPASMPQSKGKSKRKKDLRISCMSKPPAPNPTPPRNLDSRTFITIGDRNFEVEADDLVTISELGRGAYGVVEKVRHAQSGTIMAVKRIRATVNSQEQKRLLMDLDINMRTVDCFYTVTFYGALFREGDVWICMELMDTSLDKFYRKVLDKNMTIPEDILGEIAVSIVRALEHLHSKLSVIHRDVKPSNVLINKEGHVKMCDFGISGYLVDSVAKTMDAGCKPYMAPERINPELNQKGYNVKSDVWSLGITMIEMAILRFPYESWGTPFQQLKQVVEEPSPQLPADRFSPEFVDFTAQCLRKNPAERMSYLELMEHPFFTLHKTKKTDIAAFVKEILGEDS

Set 1 — observed: binding; technique: competition with immobilised ligand; tested at: 1 µM
Structure (SMILES): O=C(N[C@H]1CCCCC/C=C\C2C[C@@]2(C(=O)O)NC(=O)[C@@H]2C[C@@H](Oc3ccncc3)CN2C1=O)OC1CCCC1 (some centres unmarked)
It gave 100% for remaining binding (PTK2B (Homo sapiens, UniProt Q14289)).
The remaining binding was 100% (FER (Homo sapiens, UniProt P16591)).
For CDC42BPB (Homo sapiens, UniProt Q9Y5S2): remaining binding read 100%.
For CDK5 (Homo sapiens, UniProt Q00535): remaining binding read 77%.
The remaining binding was 100% (MAP3K12 (Homo sapiens, UniProt Q12852)).
Cyclin-dependent kinase 4, with cyclin D3 (CDK4, Homo sapiens, UniProt P11802) — remaining binding: 89%.
It gave 100% for remaining binding (MAP4K4 (Homo sapiens, UniProt O95819)).
Tyrosine-protein kinase JAK3, JH1 (JAK3, Homo sapiens, UniProt P52333) — remaining binding: 100%.
The remaining binding was 100% (MAPK12 (Homo sapiens, UniProt P53778)).
For PIK3CD (Homo sapiens, UniProt O00329): remaining binding read 92%.
PAK1 (Homo sapiens, UniProt Q13153) — remaining binding: 89%.
MAP2K3 (Homo sapiens, UniProt P46734) — remaining binding: 80%.

Set 2 — technique: RNA Bind-n-Seq; molecule type: RNA; sample: in vitro; tested at: 20 nM; notes: 6-mer, flanks averaged, single round; together with: 150 mM LiCl; reference: input library; direction: higher = stronger binding
Target: TAR DNA-binding protein 43, full length, His tag (TARDBP, Homo sapiens, UniProt Q13148, residues 1-414)
`GGUCUG` — result for “6-mer enrichment (R)”: 1.01.
`CGCCAC` — result for “6-mer enrichment (R)”: 0.947.
`AAUGGU` — result for “6-mer enrichment (R)”: 1.09.
Under “6-mer enrichment (R)”, `GGGUUA` is recorded as 1.09.
`AUAAGC` — result for “6-mer enrichment (R)”: 0.866.
Under “6-mer enrichment (R)”, `AGGCAU` is recorded as 0.883.
`ACAUAC`: “6-mer enrichment (R)” 0.841.
For `CCUUGA`, “6-mer enrichment (R)” read 1.17.

Set 3 — technique: DHFR PCA, deep sequencing; sample: yeast; together with: (+)-ABA 58 µM; reference: wild-type fitted maximum; direction: higher = stronger binding
Target: ABI1, truncated, D143A, DHFR fusion (Arabidopsis thaliana)
Notes: methotrexate growth selection, single substitutions
Starting sequence: PYL1, truncated, DHFR fusion (Arabidopsis thaliana); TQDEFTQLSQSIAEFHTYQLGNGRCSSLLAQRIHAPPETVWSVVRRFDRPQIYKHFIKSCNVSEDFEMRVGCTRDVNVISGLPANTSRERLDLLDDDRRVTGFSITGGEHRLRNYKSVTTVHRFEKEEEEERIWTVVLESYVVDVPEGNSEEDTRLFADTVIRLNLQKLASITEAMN; partner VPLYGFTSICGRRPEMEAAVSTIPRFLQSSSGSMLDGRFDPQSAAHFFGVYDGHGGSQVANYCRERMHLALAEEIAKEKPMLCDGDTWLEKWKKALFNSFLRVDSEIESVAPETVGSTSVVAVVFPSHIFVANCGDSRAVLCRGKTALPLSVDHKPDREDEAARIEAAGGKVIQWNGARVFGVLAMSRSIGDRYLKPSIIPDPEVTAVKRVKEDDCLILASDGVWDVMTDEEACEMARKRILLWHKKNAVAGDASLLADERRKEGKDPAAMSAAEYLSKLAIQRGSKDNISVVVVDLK
For `S26L`, “relative binding score” read 11%.
Under “relative binding score”, `A35S` is recorded as 74.7%.
`I12N`: “relative binding score” 22%.
Under “relative binding score”, `R113S` is recorded as 89.3%.
`A35H` — result for “relative binding score”: -24.2%.
Under “relative binding score”, `L29N` is recorded as 82.1%.
`I133R` — result for “relative binding score”: 85.8%.
`D153W`: “relative binding score” 4.22%.

Further values, each from its own experiment
`CC(C)n1cnc(-c2ccc(F)cc2)c1-c1ncc(C(=O)Nc2ccc(N3CCN(C)CC3)cc2)[nH]1` — result for “patients with TEAE”: 0% (phase 2a trial; patients with idiopathic pulmonary fibrosis; 30 mg once daily, nervous system disorders SOC, grade 5).

Excerpt of the above (set 3):
`I133R` — result for “relative binding score”: 85.8%.
Under “relative binding score”, `L29N` is recorded as 82.1%.
`I12N`: “relative binding score” 22%.
